# Measured values pooled from the literature.
# Protocols differ between the studies behind these lines. Numbers after ± are the reported error.
# REC107: REC107 41-224 (Saccharomyces cerevisiae, UniProt P21651)
# Sequence of UniProt P21651 (whole entry, looked up): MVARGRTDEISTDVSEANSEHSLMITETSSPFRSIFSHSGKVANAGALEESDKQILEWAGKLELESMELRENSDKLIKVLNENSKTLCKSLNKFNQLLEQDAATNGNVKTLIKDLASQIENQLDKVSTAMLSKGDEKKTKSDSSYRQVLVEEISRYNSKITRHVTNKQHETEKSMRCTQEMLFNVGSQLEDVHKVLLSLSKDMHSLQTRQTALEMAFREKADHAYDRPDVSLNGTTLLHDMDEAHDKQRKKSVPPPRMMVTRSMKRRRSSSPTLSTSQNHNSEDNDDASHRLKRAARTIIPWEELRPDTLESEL
# T1: ATRX ADD domain 167-289 K251R/F284Y (Homo sapiens); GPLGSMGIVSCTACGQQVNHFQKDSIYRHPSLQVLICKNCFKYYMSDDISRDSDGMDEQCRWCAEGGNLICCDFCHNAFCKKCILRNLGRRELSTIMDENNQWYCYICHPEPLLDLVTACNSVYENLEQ
# T2: ATRX ADD domain 167-289 K251R/F284Y/Y203A (Homo sapiens); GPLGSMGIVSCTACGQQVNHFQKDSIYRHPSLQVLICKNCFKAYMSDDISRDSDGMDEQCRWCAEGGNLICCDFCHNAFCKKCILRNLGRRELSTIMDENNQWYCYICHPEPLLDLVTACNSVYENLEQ
# B1: PUX5 301-421 F395A (Arabidopsis thaliana, UniProt Q7Y175); chain KNPFQGVGRTLGASGSGSSSAPQASSAPMNVAPAPSRGLVVDPAAPTTSIQLRLADGTRLVSRFNNHHTVRDVRGFIDASRPGGSKEYQLLTMGAPPKQLTELDQTIEQAGIANAVVIQKF
# B2: SEPTIN7 (Homo sapiens, UniProt Q16181); sequence looked up; chain MSVSARSAAAEERSVNSSTMVAQQKNLEGYVGFANLPNQVYRKSVKRGFEFTLMVVGESGLGKSTLINSLFLTDLYSPEYPGPSHRIKKTVQVEQSKVLIKEGGVQLLLTIVDTPGFGDAVDNSNCWQPVIDYIDSKFEDYLNAESRVNRRQMPDNRVQCCLYFIAPSGHGLKPLDIEFMKRLHEKVNIIPLIAKADTLTPEECQQFKKQIMKEIQEHKIKIYEFPETDDEEENKLVKKIKDRLPLAVVGSNTIIEVNGKRVRGRQYPWGVAEVENGEHCDFTILRNMLIRTHMQDLKDVTNNVHYENYRSRKLAAVTYNGVDNNKNKGQLTKSPLAQMEEERREHVAKMKKMEMEMEQVFEMKVKEKVQKLKDSEAELQRRHEQMKKNLEAQHKELEEKRRQFEDEKANWEAQQRILEQQNSSRTLEKNKKKGKIF
# B3: SPP1 161-353 (Saccharomyces cerevisiae, UniProt Q03012); chain DNNIVVKTDDEKEIFDQIVVRDMTLKTLEDDLQEVQEISLPLFKKKLELLEVYLGWLDNVYTEMRKLDDDAASHVECGKEDSKGTKRKKKKNSSRSRARKNICGYCSTYERIPCSVEEFVRDFGSNEEATKIHEVCTKWKCNRHLDWVSTNQEQYLQQIDSLESMQERLQHLIQARKKQLNIQYYEEILRRGL
# B4: GIGYF2 35-105 E46A/E47F/Q89A (Homo sapiens, UniProt Q6Y7W6-1); chain KYKLADYRYGRAFMLALFLKDNKIPSDLLDKEFLPILQEEPLPPLALVPFTEEEARNFSMSVNSAAVLRLT
# B5: PUX5 301-421 F395S (Arabidopsis thaliana, UniProt Q7Y175); chain KNPFQGVGRTLGASGSGSSSAPQASSAPMNVAPAPSRGLVVDPAAPTTSIQLRLADGTRLVSRFNNHHTVRDVRGFIDASRPGGSKEYQLLTMGSPPKQLTELDQTIEQAGIANAVVIQKF
# B6: DTNA 458-564 (Homo sapiens, UniProt Q9Y4J8-1); sequence looked up; chain SAPDISFTIDANKQQRQLIAELENKNREILQEIQRLRLEHEQASQPTPEKAQQNPTLLAELRLLRQRKDELEQRMSALQESRRELMVQLEGLMKLLKTQGAGSPRSS
# B7: mxt 577-640 (Drosophila melanogaster, UniProt Q9VR35); sequence looked up; chain SRVSYDIEHLLYYSMSPHSWTLPTDWQKMQETAPSILRNKDLQDESQRFDGDKYLASIKTAAKR
# B8: HERC2 2540-2700 (Homo sapiens, UniProt O95714); chain STGAVVTESQTYKKRADFLSNDDYAVYVRENIQVGMMVRCCRAYEEVCEGDVGKVIKLDRDGLHDLNVQCDWQQKGGTYWVRYIHVELIGYPPPSSSSHIKIGDKVRVKASVTTPKYKWGSVTHQSVGVVKAFSANGKDIIVDFPQQSHWTGLLSEMELVP
# B9: PUX7 171-468 (Arabidopsis thaliana, UniProt Q94JZ8); chain LASLYRPPFHLMFQGSFEQAKTTSSSQDKWLLVNLQSTTEFSSHMLNRDTWANDAVSQTIKANFIFWQVYDDTTEGRKVCTYYKLESIPVVLVIDPTTGQRMRMWTGMVDPENLLEDLVPFMDGGPREHFASLSKKRPRGSFSLTPHSKPKEDVAKDEEEEELQRALAASLEDNNMKESSDDQSTIIPEEVAVEAVTSAVLPTFPPLPEEPKGGDRSLQCRVGIRLPNGQRLQRNFLKTDTIQLLWSFCYSQLEESERKKPLKLTQAIPGESKTLEYESNLTLEQSGVANSMISATWE
# B10: protein 1-89 (Arabidopsis thaliana, UniProt Q9LYC2); sequence looked up; chain MTMLRVRSRDGLERVSVDGPHITVSQLKTLIQDQLQIPIHNQTLSTNRNLLLAKSPSDFLAFTDMADPNLRISSLNLAHGSMVYLAYEG
# B11: SPP1 (Saccharomyces cerevisiae, UniProt Q03012); chain MSLPQWCPPHSTLKRNPTTGEDVYCICKRPDYGELMVGCDGCDDWFHFTCLHIPEQFKDLVFSFYCPYCQAGITGKNKDAIINGEGSLPKTLWKRKCRISDCYKPCLQDSKYCSEEHGREFVNDIWSRLKTDEDRAVVKKMVEQTGHIDKFKKFGQLDFIDNNIVVKTDDEKEIFDQIVVRDMTLKTLEDDLQEVQEISLPLFKKKLELLEVYLGWLDNVYTEMRKLDDDAASHVECGKEDSKGTKRKKKKNSSRSRARKNICGYCSTYERIPCSVEEFVRDFGSNEEATKIHEVCTKWKCNRHLDWVSTNQEQYLQQIDSLESMQERLQHLIQARKKQLNIQYYEEILRRGL
# B12: GIGYF1 33-103 (Homo sapiens, UniProt O75420); chain KYKLADYRYGREEMLALYVKENKVPEELQDKEFAAVLQDEPLQPLALEPLTEEEQRNFSLSVNSVAVLRLM
# Sequence of UniProt P54609 (whole entry, looked up): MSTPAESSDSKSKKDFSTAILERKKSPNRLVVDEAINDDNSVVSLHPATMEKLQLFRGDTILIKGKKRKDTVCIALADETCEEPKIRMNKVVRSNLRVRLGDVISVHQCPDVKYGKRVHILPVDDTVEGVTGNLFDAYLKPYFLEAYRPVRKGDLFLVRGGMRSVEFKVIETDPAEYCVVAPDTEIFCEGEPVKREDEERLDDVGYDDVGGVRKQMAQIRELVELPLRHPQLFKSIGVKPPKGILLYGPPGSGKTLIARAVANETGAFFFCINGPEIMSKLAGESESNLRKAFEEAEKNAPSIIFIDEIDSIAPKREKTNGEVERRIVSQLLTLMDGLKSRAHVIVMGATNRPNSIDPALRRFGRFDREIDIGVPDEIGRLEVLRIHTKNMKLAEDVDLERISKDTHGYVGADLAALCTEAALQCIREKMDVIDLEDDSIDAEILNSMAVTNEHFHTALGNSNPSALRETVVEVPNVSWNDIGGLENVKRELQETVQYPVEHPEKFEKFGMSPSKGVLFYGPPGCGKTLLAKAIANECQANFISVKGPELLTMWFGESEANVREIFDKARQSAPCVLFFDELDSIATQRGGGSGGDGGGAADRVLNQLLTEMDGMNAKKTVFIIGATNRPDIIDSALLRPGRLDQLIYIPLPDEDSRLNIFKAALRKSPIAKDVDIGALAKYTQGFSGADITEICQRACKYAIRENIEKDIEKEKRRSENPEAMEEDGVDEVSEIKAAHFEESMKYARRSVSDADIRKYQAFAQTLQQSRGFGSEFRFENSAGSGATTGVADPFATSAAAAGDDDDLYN
# Sequence of UniProt P0C0L4 (whole entry, looked up): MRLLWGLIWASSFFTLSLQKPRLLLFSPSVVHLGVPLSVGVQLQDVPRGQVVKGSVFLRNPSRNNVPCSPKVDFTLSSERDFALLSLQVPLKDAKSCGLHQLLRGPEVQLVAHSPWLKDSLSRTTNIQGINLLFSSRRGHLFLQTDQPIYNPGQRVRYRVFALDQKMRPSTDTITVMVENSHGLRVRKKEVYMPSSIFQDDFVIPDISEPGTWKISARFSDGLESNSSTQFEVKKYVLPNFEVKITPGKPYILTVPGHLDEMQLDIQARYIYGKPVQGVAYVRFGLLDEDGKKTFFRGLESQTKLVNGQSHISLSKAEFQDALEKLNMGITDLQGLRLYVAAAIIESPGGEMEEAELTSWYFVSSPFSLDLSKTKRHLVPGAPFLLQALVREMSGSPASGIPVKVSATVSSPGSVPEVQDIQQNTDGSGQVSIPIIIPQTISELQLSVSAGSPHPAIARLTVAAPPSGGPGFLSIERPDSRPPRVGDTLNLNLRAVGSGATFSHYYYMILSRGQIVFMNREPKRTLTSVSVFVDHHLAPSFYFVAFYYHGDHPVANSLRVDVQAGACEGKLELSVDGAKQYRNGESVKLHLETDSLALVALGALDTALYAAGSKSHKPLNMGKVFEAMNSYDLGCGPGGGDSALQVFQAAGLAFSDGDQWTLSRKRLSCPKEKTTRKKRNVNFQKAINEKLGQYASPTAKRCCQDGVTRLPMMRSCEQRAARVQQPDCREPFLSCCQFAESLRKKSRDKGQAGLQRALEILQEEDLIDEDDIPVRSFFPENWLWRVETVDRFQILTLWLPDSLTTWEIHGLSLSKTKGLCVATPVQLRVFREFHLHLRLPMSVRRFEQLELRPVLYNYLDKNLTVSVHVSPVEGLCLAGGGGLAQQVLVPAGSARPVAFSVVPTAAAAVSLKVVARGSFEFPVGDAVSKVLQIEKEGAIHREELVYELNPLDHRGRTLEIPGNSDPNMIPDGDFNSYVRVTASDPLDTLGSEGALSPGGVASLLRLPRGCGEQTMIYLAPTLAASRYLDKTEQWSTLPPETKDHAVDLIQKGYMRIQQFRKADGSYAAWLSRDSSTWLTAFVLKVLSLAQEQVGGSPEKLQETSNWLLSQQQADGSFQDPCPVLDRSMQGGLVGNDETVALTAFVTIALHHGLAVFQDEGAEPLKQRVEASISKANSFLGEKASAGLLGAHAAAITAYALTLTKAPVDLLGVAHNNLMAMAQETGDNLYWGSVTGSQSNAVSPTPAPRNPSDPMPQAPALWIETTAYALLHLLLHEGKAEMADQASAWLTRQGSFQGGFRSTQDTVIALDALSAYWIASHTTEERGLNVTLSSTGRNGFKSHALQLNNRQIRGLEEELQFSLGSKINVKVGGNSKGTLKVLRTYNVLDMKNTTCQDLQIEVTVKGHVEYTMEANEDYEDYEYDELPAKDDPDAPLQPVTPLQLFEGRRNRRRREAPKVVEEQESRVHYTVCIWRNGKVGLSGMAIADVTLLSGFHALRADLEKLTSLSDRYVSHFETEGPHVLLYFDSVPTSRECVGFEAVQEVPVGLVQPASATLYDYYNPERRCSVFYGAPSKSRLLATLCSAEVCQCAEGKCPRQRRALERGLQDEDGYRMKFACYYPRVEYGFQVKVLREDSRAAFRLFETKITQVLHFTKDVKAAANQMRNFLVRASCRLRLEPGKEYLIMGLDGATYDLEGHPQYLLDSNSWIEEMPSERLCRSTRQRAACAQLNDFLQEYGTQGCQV
# Sequence of UniProt P06241 (whole entry, looked up): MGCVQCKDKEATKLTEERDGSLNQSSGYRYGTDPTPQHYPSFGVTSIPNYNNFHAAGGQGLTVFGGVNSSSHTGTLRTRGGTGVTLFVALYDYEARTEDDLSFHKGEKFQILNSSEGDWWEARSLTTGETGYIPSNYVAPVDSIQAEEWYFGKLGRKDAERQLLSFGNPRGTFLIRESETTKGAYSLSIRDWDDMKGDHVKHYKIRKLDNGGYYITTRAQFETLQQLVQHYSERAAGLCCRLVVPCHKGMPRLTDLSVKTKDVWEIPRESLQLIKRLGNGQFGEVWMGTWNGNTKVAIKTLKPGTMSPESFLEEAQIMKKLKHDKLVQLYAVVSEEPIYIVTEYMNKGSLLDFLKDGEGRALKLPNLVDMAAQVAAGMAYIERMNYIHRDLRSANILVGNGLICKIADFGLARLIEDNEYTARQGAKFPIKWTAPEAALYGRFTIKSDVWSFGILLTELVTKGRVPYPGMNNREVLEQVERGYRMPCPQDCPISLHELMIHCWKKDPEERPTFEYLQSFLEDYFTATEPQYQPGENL
# Sequence of UniProt Q13772 (whole entry, looked up): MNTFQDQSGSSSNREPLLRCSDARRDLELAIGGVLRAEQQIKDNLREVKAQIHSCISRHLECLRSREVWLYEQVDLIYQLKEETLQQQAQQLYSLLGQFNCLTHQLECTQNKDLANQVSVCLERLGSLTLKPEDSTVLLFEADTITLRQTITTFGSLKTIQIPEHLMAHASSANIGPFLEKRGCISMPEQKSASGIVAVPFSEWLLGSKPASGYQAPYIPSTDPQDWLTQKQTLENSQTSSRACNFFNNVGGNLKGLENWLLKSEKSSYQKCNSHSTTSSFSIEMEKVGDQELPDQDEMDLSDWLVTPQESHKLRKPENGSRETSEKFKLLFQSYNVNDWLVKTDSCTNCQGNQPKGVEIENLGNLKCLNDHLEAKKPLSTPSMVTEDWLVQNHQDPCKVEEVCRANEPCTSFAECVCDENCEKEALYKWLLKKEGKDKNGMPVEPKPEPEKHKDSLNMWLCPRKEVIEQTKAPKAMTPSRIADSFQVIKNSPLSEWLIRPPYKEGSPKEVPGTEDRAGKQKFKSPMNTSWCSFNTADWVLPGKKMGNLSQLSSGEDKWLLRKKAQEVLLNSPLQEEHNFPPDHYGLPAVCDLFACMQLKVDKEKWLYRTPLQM
# Sequence of UniProt Q06671 (whole entry, looked up): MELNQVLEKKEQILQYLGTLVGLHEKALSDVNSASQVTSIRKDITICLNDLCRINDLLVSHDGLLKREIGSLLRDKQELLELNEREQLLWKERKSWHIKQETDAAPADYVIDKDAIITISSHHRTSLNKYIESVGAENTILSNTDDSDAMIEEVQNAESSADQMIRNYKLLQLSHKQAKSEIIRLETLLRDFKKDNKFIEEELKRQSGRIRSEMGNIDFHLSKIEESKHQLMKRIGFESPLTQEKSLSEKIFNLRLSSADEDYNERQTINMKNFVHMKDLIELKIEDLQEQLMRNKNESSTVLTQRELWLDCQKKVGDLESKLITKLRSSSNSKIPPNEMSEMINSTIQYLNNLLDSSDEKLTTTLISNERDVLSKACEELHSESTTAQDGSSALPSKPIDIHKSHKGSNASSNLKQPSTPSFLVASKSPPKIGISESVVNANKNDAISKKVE
# Sequence of UniProt P15311 (whole entry, looked up): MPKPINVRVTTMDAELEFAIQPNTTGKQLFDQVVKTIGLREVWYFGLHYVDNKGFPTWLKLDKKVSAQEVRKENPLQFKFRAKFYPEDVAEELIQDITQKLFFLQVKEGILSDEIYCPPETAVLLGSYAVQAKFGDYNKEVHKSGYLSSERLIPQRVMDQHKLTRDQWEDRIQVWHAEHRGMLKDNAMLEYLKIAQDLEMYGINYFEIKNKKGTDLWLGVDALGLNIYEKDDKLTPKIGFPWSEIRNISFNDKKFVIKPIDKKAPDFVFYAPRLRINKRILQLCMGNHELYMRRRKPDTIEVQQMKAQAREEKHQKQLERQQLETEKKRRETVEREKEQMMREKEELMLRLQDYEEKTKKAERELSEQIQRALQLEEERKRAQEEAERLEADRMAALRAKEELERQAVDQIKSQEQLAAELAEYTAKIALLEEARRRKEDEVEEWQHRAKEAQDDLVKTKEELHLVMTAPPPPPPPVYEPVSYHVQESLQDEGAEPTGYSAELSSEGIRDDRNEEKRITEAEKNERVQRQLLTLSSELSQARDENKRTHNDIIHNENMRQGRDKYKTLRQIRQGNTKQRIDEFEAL
Substance,tested on,test,test system,setting,scale,quantity,value
"Atg23 full-length, dimer (yeast, UniProt Q06671)","ATG9 864-997 (Saccharomyces cerevisiae, UniProt Q12142)",ITC,,"20 °C, NaCl 150 mM",,molecule per partner,0.79
"SERPINA1 (Homo sapiens, UniProt P01009)","DRC11 (Homo sapiens, UniProt Q86XH1)",cross-linking MS,,with: DSSO,,cross-linked residues,K359 to K645
B1 (PUX5 301-421 F395A),"CDC48A 1-463 (Arabidopsis thaliana, UniProt P54609)",ITC,,25 °C,,molecule per partner,1.4 ± 0.1
calmodulin (Spodoptera frugiperda),"stra6 (Danio rerio, UniProt F1RAX4)",SEC with light scattering,,in detergent,,molecule per partner,1
B2 (SEPTIN7),"SEPTIN3 (Homo sapiens, UniProt Q9UH03-1)",co-sedimentation,,,,molecule per partner,1
ARTKQTARKSTGGKAY (H3C1 1-15; K4me1),"T1, ATRX ADD domain 167-289 K251R/F284Y (Homo sapiens)",ITC,peptide,,,molecule per partner,0.98
"SRVSYDIEHLLYYSMSPHSWTLPTDWQKMQETAPSILRNKDLQD (mxt 577-620 (Drosophila melanogaster, UniProt Q9VR35); sequence looked up)","eIF4E1 69-248 (Drosophila melanogaster, UniProt P48598-2)",ITC,,,,molecule per partner,0.98 ± 0.02
ARTKQTARKSTGGKA (H3C1 1-15; K9me1),"T1, ATRX ADD domain 167-289 K251R/F284Y (Homo sapiens)",ITC,peptide,,,molecule per partner,0.97
B3 (SPP1 161-353),REC107,SEC-SAXS,,,,molecule per partner,2 per Mer2 tetramer
TASPAKETSF,human SCRIB PDZ3-4 tandem (MBP fusion),automated holdup,"peptide, crude extract","concentration not given, uncorrected, unit not given","reference: biotin control resin, higher = stronger binding",binding intensity,0.839
"PUX9 (Arabidopsis thaliana, UniProt Q4V3D3)","CDC48A 1-463 (Arabidopsis thaliana, UniProt P54609)",ITC,,25 °C,,molecule per partner,0.6 ± 0.1
B4 (GIGYF2 35-105 E46A/E47F/Q89A),"EIF4E2 52-234 Q159S/M161D/R202E (Homo sapiens, UniProt O60573-1)",ITC,peptide,,,molecule per partner,1.01 ± 0.02
ARTKQTARKSTGGKA (H3C1 1-15; K9me3),"T2, ATRX ADD domain 167-289 K251R/F284Y/Y203A (Homo sapiens)",ITC,peptide,,,molecule per partner,1.02
"FGB (Homo sapiens, UniProt P02675)","CAPN12 (Homo sapiens, UniProt Q6ZSI9)",cross-linking MS,,with: DSSO,,cross-linked residues,K348 to K268
ARTKQTARKS (H3C1 1-10; R2me2a),"T1, ATRX ADD domain 167-289 K251R/F284Y (Homo sapiens)",ITC,peptide,,,molecule per partner,0.99
B5 (PUX5 301-421 F395S),"CDC48A 1-463 (Arabidopsis thaliana, UniProt P54609)",ITC,,25 °C,,molecule per partner,1.2 ± 0.1
GSGAGHETIV,human SCRIB PDZ3-4 tandem (MBP fusion),automated holdup,"peptide, crude extract","concentration not given, corrected by standard peak, unit not given","reference: biotin control resin, higher = stronger binding",binding intensity,0.445
B6 (DTNA 458-564),"DMD 3365-3685 (Homo sapiens, UniProt P11532-1)",ITC,,,,molecule per partner,0.97
"PUX5 (Arabidopsis thaliana, UniProt Q7Y175)","CDC48A 1-463 (Arabidopsis thaliana, UniProt P54609)",ITC,,25 °C,,molecule per partner,0.5 ± 0.1
CHD1 fragment (Saccharomyces cerevisiae),nucleosome (Xenopus laevis),EMSA,,,,molecule per partner,1 Chd1:nucleosome
PAPALPPKPPKPTT (PIK3R1 303-316 (Homo sapiens)),"FYN 82-144 (Homo sapiens, UniProt P06241)",ITC,peptide,,,molecule per partner,0.9
B7 (mxt 577-640),"eIF4E1 69-248 I96A/I112A (Drosophila melanogaster, UniProt P48598-2)",ITC,,,,molecule per partner,1 ± 0.02
B8 (HERC2 2540-2700),"NCOA4 383-442, 2Fe-2S cluster bound (UniProt Q13772)",AUC,,,,molecule per partner,1
"TFAFPLHVDYSWVISTEPGSDSEEDEEEKRCLLKLPAQAHWASGRLDISN (ASAP3 681-730 (Homo sapiens, UniProt Q8TDY4-1); sequence looked up)","EZR 2-296 (Homo sapiens, UniProt P15311)",SEC-MALS,,,,molecule per partner,1
"C4b (Homo sapiens, UniProt P0C0L4)",C4BP/PROS1 mature (human),mass photometry,,,,molecule per partner,1 C4b per C4BP
B9 (PUX7 171-468),"CDC48A 1-463 (Arabidopsis thaliana, UniProt P54609)",ITC,,10 °C,,molecule per partner,1.2 ± 0.1
B10 (protein 1-89),"CDC48A (Arabidopsis thaliana, UniProt P54609)",ITC,,with: AMPPNP,,molecule per partner,0.9
B11 (SPP1),REC107,SEC-SAXS,,,,molecule per partner,2 per Mer2 tetramer
colistin,Acinetobacter baumannii,broth microdilution,clinical isolate RKI-No_272/16,,,MIC,≤ 0.5 µg/mL
B12 (GIGYF1 33-103),"EIF4E2 52-234 (Homo sapiens, UniProt O60573-1)",ITC,peptide,,,molecule per partner,1 ± 0.02
